Published values from different studies.
Every numbered part comes from another study and shows a few of its results, in no order. Changes are numbered by the printed parent chain.

Set 1 — method: RNA Bind-n-Seq; form: RNA; matrix: in vitro; concentration: 365 nM; relative to: no-protein control; direction: higher = stronger binding
Target: RNA binding protein fox-1 homolog 2, RRM domain, GST-SBP tag (RBFOX2, Homo sapiens, UniProt O43251-10, residues 100-194)
Notes: natural RNA segment, single round, ends assumed
Residues (chain): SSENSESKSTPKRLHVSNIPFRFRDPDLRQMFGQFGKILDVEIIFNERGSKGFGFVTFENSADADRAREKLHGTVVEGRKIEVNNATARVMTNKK
`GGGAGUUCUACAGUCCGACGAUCCUGGUCUUUUGUGAAUGGAUGGUUUUGUUUCCUAUGGGAAUUUUGGCAAAGGUUUUCUGGAAAGAACAAGUUUCUCAAAGGACUUUCUUCCUCUAGAAUGUUCAUUUUAUUGGAAUUCUCGGGUGCCAA`: “RBNS enrichment (R)” 0.488.
For `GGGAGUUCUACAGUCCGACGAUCUGAGAAUUCAUGAGCACUUUAACUCUAAACUCUGAAUUUCAAAGCUUGAUGUGAAGUCCUCUAGAAUGUUUACAUUUACUAAGGUGUGCUGGGUCCUGUCUCUUUUGACUUGGAAUUCUCGGGUGCCAA`, “RBNS enrichment (R)” read 0.218.
`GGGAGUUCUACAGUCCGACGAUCGGGACCUGCUUGUGAACAUGUGUAUAGAGUGCCAGCUCAGAUAAUAAGCUUACCAGUGACCUUGUUCACUUUGAGUCAGGGAACGUAUUUGUAAAAUUAACACUAAAGAUUGGAAUUCUCGGGUGCCAA`: “RBNS enrichment (R)” 0.513.
Under “RBNS enrichment (R)”, `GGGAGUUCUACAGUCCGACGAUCUAGCUGGCAGAGUGGUAUCAAAGGAGAAAAACAGUGAAAAAGCCAAUUUCACUGGUUCGUUCAAUCCAGCUUGUUGCUAAUAUUAGUUACCCUUGUUUUAAUGACAGAGAUGGAAUUCUCGGGUGCCAA` is recorded as 0.432.
Under “RBNS enrichment (R)”, `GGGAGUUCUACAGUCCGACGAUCGCAUAUCUUUAAUCACACCUAUACCUACCAUACUGCACUGUAGCCUUUGCAUGUGAGUAUUAUGUACUACAGUAAGGAAUGGAUGGCUCCUAACUAGCAUGCAACCCUUGUGGAAUUCUCGGGUGCCAA` is recorded as 33.7.
`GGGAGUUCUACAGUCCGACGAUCCCAGUGUGCUCGCCAUGAGCUGGGUCAGGGCUGGGGAGUUGUGCAGGCUGGGGUGACCCUUCCCCCAUCAUUGGGCCCCAACGGGCAUGUCUCCACCGAAUCCAUUUAGAUGGAAUUCUCGGGUGCCAA`: “RBNS enrichment (R)” 0.902.
Under “RBNS enrichment (R)”, `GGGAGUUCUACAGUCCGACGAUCGUGGUUUUUCCUAACUUACUUGCUAUCAACAUACCACUGGAAAAAAUCUCUGAGGUAUCAAAGAAUUUCUCCAUGAAGCCAGAUAAGUAUUCAAGAAUGCAUGGACCAGUUGGAAUUCUCGGGUGCCAA` is recorded as 2.78.
Under “RBNS enrichment (R)”, `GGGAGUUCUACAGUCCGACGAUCUGGUAACGUGUCUGGAGUGUGGCACUGGCAGAAUGGGGAAAGAACAGGAAUAUUGGCCAUGAUUCUUUUGCCCUGGGCUUCUUGGGCAUCCGCUACAGCCAUACCAGACAUGGAAUUCUCGGGUGCCAA` is recorded as 0.623.
For `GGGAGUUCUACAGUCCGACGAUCGCGGGCAUCUGUGCGUGCGAGGAGACCCCUUCUCUCGGCCAAGUUUUUUCCCAUAACACCCACAUGGAUUUGUGAAGACGUGCUUCUCAGAAGCAAGGACUCAAAAAGCAUGGAAUUCUCGGGUGCCAA`, “RBNS enrichment (R)” read 3.82.

Set 2 — target: UBE2C UBC core domain (UniProt O00762); method: yeast two-hybrid; matrix: yeast; notes: mostly zero background; relative to: not given; direction: higher = stronger interaction
B1: PHF7 RING domain (UniProt Q9BWX1); chain IQHGHVGEESCILCCEDLSQQSVENIQSPCCSQAIYHRKCIQKYAHTSAKHFFKCPQCNNRKEFPQEML
B2: TRIM55 RING domain (UniProt Q9BYV6); chain TMDNLEKQLICPICLEMFTKPVVILPCQHNLCRKCASDIFQASNPYLPTRGGTTMASGGRFRCPSCRHEVVLDRHG
B3: MSL2 RING domain (UniProt Q9HCI7); chain LLPYFRQSLSCCVCGHLLQDPIAPTNSTCQHYVCKTCKGKKMMMKPSCSWCKDYEQFEENKQ
B4: UBE4A RING domain (UniProt Q14139); chain LQQQEEETYADACDEFLDPIMSTLMCDPVVLPSSRVTVDRSTIARHLLSDQTDPFNRSPLTMDQIRPNTELKEKIQRWLAERKQQKEQLE
B5: PEX2 RING domain (UniProt P28328); chain DNTLATSGKECALCGEWPTMPHTIGCEHIFCYFCAKSSFLFDVYFTCPKCGTEVHSLQPLK
B6: RNF5 RING domain (UniProt Q99942); chain ERGGAGATFECNICLETAREAVVSVCGHLYCWPCLHQWLETRPERQECPVCKAGISREKVVP
B7: RNF175 RING domain (UniProt Q8N4F7); chain LPTRSLSDNICAVCGQKIIVELDEEGLIENTYQLSCNHVFHEFCIRGWCIVGKKQTCPYCKEKVDLKRMIS
B8: TRIM15 RING domain (UniProt Q9C019); chain SLKVVHELPACTLCAGPLEDAVTIPCGHTFCRLCLPALSQMGAQSSGKILLCPLCQEEEQAETPMA
B9: TRIM52 RING domain (UniProt Q96A61); chain PMQTLQEEAVCAICLDYFKDPVSISCGHNFCRGCVTQLWSKEDEEDQNEEEDEWEEEEDEEAV
B10: TRIM35 RING domain (UniProt Q9UPQ4); chain PSRSFKEELLCAVCYDPFRDAVTLRCGHNFCRGCVSRCWEVQVSPTCPVCKDRASPADLRT
Construct (chain): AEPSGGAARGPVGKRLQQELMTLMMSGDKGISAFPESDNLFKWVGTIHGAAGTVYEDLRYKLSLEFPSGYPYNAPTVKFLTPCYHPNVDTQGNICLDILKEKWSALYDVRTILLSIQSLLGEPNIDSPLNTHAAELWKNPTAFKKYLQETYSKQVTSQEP
Under “lacZ reporter activity”, `B1 (PHF7 RING domain)` is recorded as 0.
Under “lacZ reporter activity”, `B2 (TRIM55 RING domain)` is recorded as 0.
Under “lacZ reporter activity”, `B3 (MSL2 RING domain)` is recorded as 0.
For `B4 (UBE4A RING domain)`, “lacZ reporter activity” read 0.
Under “lacZ reporter activity”, `B5 (PEX2 RING domain)` is recorded as 0.
Under “lacZ reporter activity”, `B6 (RNF5 RING domain)` is recorded as 0.
`KIKDLNEHIVCCLCAGYFVDATTITECLHTFCKSCIVKYLQTSKYCPMCNIKIHETQPLL (PCGF1 RING domain (UniProt Q9BSM1))` — result for “lacZ reporter activity”: 0.
`LKQVSIRENCCSLCCDEVADTQLKPCGHSDLCMDCALQLETCPLCRKEIVSRIRQI (RSPRY1 RING domain (UniProt Q96DX4))`: “lacZ reporter activity” 0.
`B7 (RNF175 RING domain)`: “lacZ reporter activity” 0.
Under “lacZ reporter activity”, `B8 (TRIM15 RING domain)` is recorded as 0.
Under “lacZ reporter activity”, `B9 (TRIM52 RING domain)` is recorded as 0.
`B10 (TRIM35 RING domain)` — result for “lacZ reporter activity”: 0.

Set 3 — target: HLF, bZIP domain (human); method: DHFR protein complementation; matrix: yeast; relative to: wild-type JUN-FOS pair; direction: higher = stronger binding
Notes: single substitutions, most at no-binding floor
Starting sequence: JUN, bZIP domain (human); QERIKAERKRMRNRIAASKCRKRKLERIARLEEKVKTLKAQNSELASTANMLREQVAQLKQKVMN; partner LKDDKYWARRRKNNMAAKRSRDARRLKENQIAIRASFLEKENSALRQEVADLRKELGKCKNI
`E32M` gave a binding fitness of -1.44 natural log.
With `K34E` the binding fitness was -1.27 natural log.
`T48V` gave a binding fitness of -1.37 natural log.
The binding fitness of `S47F` is reported as -1.43 natural log.
The binding fitness of `A29Y` is reported as -1.45 natural log.
`E33N` gave a binding fitness of -1.33 natural log.
The binding fitness of `L45E` is reported as -1.59 natural log.
`T48A` gave a binding fitness of -1.23 natural log.
`E54A` gave a binding fitness of -1.49 natural log.
`K39R` has a binding fitness of -1.33 natural log.
With `A46D` the binding fitness was -1.48 natural log.
With `K34G` the binding fitness was -1.42 natural log.
The binding fitness of `T37Y` is reported as -1.11 natural log.
`L31W` has a binding fitness of -1.49 natural log.
The binding fitness of `A29C` is reported as -1.22 natural log.
With `K34R` the binding fitness was -1.31 natural log.
`L59R` has a binding fitness of -1.45 natural log.
With `T37S` the binding fitness was -1.44 natural log.
`N42Q` gave a binding fitness of -1.5 natural log.
`E54R` has a binding fitness of -1.34 natural log.
The binding fitness of `I28P` is reported as -1.42 natural log.
With `L52R` the binding fitness was -1.54 natural log.

Set 4 — method: aptamer microarray, sandwich; form: DNA with 2'F-ANA; matrix: in vitro; concentration: 200 nM; with: Cy3 exosite-II aptamer, 400 nM; direction: higher = stronger binding; strand: GGTTGGTGTGGTTGG
Target: Prothrombin, mature alpha-thrombin (F2, Homo sapiens, UniProt P00734)
Notes: whole 15-mer aptamer, many near background
`2'F-ANA at 2 3 7 10 12 13 15` — result for “mean fluorescence intensity”: 461 a.u.
For `2'F-ANA at 2 3 6 8 12 14`, “mean fluorescence intensity” read 428 a.u.
`2'F-ANA at 1 2 4 5 6 7 10`: “mean fluorescence intensity” 129 a.u.
`2'F-ANA at 2 3 6 8 9 10 12 15` — result for “mean fluorescence intensity”: 401 a.u.
Under “mean fluorescence intensity”, `2'F-ANA at 3 4 5 10 11 12 13` is recorded as 55.8 a.u.
`2'F-ANA at 1 2 6 8 9 10 12 15`: “mean fluorescence intensity” 66.6 a.u.
`2'F-ANA at 2 3 4 7 9 14`: “mean fluorescence intensity” 304 a.u.
`2'F-ANA at 4 5 6 7 8 10 12 15`: “mean fluorescence intensity” 51.7 a.u.
`2'F-ANA at 1 4 7 11`: “mean fluorescence intensity” 117 a.u.
`2'F-ANA at 1 2 6 7 9 12 14 15` — result for “mean fluorescence intensity”: 74.9 a.u.
`2'F-ANA at 1 2 3 4 5 6 9 10 11 14 15`: “mean fluorescence intensity” 46.4 a.u.
Under “mean fluorescence intensity”, `2'F-ANA at 1 5 6 7 12 14 15` is recorded as 44.8 a.u.
`2'F-ANA at 1 2 5 8 12 13 14` — result for “mean fluorescence intensity”: 50 a.u.
`2'F-ANA at 1 3 4 6 8 9 10 12 15`: “mean fluorescence intensity” 78.9 a.u.
`2'F-ANA at 3 4 8 9 12 14` — result for “mean fluorescence intensity”: 385 a.u.
`2'F-ANA at 1 4 5 6 10 11 12 14 15` — result for “mean fluorescence intensity”: 47.2 a.u.
`2'F-ANA at 1 2 5 8 9 12 13 14 15`: “mean fluorescence intensity” 68.5 a.u.
For `2'F-ANA at 5 6 8 9 10 11 12 13 14 15`, “mean fluorescence intensity” read 46.5 a.u.
For `2'F-ANA at 1 3 4 9 12`, “mean fluorescence intensity” read 425 a.u.
Under “mean fluorescence intensity”, `2'F-ANA at 3 8 9 10 11 13` is recorded as 424 a.u.
For `2'F-ANA at 1 2 3 5 6 9 10 11 13 14 15`, “mean fluorescence intensity” read 48.4 a.u.
Under “mean fluorescence intensity”, `2'F-ANA at 1 2 5 9 12 14` is recorded as 47.5 a.u.
Under “mean fluorescence intensity”, `2'F-ANA at 2 5 6 7 8 9 13 14` is recorded as 47 a.u.
`2'F-ANA at 2 6 7 8 9 14`: “mean fluorescence intensity” 147 a.u.
For `2'F-ANA at 1 3 4 7 8 11 12 14`, “mean fluorescence intensity” read 108 a.u.

Repeated from above (set 4):
`2'F-ANA at 1 2 5 8 9 12 13 14 15`: “mean fluorescence intensity” 68.5 a.u.
For `2'F-ANA at 5 6 8 9 10 11 12 13 14 15`, “mean fluorescence intensity” read 46.5 a.u.
For `2'F-ANA at 1 3 4 9 12`, “mean fluorescence intensity” read 425 a.u.
Under “mean fluorescence intensity”, `2'F-ANA at 3 8 9 10 11 13` is recorded as 424 a.u.
For `2'F-ANA at 1 2 3 5 6 9 10 11 13 14 15`, “mean fluorescence intensity” read 48.4 a.u.
Under “mean fluorescence intensity”, `2'F-ANA at 1 2 5 9 12 14` is recorded as 47.5 a.u.
Under “mean fluorescence intensity”, `2'F-ANA at 2 5 6 7 8 9 13 14` is recorded as 47 a.u.
